Assay results collected from several papers.
A part holds a random share of what one study measured.
UniProt P11802, sequence (whole entry, looked up): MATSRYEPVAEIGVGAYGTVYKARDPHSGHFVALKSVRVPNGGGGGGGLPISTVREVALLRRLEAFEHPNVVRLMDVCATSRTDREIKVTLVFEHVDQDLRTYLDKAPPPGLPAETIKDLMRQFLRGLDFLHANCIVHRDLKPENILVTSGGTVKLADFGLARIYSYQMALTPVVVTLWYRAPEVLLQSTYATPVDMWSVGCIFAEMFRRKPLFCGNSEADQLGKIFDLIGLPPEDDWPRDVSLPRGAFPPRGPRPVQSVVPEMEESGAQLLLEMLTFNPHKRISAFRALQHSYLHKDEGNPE
UniProt Q9H2K8, sequence (whole entry, looked up): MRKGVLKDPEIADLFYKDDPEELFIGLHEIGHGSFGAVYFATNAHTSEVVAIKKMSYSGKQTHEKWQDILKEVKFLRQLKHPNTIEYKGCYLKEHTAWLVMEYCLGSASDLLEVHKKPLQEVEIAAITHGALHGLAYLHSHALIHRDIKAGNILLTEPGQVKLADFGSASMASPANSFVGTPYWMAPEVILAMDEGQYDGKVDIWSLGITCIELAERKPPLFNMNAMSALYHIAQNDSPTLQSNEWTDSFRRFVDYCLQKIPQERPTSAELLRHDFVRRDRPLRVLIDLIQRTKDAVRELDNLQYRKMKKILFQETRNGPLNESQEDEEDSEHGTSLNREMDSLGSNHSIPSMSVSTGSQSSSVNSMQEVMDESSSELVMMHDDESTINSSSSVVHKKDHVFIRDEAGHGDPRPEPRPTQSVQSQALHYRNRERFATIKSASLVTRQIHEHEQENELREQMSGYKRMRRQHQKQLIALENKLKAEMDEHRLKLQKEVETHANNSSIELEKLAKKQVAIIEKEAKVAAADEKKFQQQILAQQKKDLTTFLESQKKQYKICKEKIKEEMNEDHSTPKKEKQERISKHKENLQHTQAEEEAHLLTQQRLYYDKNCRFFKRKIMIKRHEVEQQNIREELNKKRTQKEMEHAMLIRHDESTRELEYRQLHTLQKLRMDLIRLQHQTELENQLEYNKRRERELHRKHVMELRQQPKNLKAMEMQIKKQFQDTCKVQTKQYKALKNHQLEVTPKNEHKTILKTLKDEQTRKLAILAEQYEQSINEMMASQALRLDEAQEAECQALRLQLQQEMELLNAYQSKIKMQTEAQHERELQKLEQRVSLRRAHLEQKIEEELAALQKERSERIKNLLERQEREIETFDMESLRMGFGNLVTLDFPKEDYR
UniProt P53667, sequence (whole entry, looked up): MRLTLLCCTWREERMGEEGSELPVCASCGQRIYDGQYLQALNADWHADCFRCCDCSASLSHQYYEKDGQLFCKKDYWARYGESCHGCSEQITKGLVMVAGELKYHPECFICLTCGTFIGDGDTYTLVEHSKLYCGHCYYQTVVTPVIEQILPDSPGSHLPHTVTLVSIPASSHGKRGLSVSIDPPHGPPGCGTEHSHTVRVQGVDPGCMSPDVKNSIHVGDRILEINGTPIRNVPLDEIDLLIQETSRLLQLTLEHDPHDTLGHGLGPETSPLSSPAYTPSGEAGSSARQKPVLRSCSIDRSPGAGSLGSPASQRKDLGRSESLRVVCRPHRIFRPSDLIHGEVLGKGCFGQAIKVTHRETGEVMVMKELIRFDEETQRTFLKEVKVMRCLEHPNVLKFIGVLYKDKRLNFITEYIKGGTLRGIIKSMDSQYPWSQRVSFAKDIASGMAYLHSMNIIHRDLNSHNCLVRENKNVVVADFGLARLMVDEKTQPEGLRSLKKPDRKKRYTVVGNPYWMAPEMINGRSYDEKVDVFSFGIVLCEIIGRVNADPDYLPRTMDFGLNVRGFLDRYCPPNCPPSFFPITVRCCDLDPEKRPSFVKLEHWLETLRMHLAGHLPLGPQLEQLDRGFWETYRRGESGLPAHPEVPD
UniProt P52564, sequence (whole entry, looked up): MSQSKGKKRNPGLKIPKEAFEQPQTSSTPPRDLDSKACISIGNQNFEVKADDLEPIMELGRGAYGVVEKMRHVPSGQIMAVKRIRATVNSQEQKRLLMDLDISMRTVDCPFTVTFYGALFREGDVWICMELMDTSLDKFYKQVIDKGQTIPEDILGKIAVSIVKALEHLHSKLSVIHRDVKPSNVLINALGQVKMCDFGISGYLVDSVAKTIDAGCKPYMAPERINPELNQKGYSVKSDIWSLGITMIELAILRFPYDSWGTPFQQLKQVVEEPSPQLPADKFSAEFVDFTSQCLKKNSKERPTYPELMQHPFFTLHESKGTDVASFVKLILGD
UniProt Q05655, sequence (whole entry, looked up): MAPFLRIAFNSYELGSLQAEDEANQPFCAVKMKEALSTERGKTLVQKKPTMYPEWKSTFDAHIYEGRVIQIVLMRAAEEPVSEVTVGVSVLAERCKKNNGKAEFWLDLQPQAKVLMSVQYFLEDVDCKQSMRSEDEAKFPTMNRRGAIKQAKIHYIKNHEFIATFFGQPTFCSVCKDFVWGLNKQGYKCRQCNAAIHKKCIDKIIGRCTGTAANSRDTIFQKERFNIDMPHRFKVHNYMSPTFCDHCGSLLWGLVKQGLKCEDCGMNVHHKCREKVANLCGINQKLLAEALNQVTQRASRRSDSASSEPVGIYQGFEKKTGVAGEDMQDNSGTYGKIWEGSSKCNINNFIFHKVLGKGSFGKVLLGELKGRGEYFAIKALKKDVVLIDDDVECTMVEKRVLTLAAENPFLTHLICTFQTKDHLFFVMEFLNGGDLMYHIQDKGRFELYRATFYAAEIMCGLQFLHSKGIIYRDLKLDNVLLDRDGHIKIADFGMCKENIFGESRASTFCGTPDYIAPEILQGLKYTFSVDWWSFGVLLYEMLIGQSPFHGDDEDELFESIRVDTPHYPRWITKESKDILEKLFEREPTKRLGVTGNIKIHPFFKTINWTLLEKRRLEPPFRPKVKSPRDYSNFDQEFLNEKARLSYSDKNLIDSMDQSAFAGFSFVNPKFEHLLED
UniProt Q9NSY1, sequence (whole entry, looked up): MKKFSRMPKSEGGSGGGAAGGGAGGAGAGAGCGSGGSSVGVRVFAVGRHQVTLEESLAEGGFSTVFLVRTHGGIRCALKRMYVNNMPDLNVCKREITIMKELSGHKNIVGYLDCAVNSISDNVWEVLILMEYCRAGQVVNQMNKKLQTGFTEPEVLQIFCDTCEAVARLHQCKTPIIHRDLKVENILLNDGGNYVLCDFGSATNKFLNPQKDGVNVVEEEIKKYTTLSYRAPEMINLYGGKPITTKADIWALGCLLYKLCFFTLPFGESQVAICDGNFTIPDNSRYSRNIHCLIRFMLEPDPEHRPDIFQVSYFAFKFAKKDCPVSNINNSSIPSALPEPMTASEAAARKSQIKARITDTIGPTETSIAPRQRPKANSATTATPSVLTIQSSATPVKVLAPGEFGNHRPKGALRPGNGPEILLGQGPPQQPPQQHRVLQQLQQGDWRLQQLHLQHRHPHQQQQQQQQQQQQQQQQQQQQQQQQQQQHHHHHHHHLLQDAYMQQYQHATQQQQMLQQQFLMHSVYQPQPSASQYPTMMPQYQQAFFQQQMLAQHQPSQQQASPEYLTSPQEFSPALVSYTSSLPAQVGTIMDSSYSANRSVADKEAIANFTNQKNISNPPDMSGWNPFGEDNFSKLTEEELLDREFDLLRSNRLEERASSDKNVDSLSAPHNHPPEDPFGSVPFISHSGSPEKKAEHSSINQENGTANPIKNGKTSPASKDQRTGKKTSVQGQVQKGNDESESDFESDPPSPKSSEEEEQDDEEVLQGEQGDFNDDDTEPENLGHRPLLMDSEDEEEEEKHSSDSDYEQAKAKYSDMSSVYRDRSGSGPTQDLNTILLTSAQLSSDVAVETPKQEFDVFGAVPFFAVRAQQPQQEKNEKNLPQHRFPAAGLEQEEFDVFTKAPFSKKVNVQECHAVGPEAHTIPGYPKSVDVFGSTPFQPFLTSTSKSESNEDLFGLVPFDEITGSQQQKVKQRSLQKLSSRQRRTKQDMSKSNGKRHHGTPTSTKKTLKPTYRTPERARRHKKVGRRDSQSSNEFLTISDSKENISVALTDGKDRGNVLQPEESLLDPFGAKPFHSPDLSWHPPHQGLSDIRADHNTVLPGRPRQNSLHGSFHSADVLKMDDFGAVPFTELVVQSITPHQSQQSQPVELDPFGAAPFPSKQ

Block 1
Compound: CS(=O)(=O)c1cc(C2(NC(=O)c3cncc4c3cnn4-c3ccc(F)cc3)CC2)ccn1
Effect on: cell-free assay
Technique: competition with immobilised ligand
Concentration: 1 µM
It gave 100% for remaining binding (Ribosomal protein S6 kinase alpha-5, N-terminal kinase domain (RPS6KA5, Homo sapiens, UniProt O75582)).
The remaining binding was 100% (Protein kinase C delta type (PRKCD, Homo sapiens, UniProt Q05655)).
For Dual specificity mitogen-activated protein kinase kinase 6 (MAP2K6, Homo sapiens, UniProt P52564): remaining binding read 74%.
For Rho-associated protein kinase 2 (ROCK2, Homo sapiens, UniProt O75116): remaining binding read 75%.
It gave 89% for remaining binding (BMP-2-inducible protein kinase (BMP2K, Homo sapiens, UniProt Q9NSY1)).
It gave 100% for remaining binding (Tyrosine-protein kinase Blk (BLK, Homo sapiens, UniProt P51451)).
cGMP-dependent protein kinase 1 (PRKG1, Homo sapiens, UniProt Q13976) — remaining binding: 100%.
It gave 100% for remaining binding (Receptor-type tyrosine-protein kinase FLT3 (FLT3, Homo sapiens, UniProt P36888, ITD)).
It gave 100% for remaining binding (Mitogen-activated protein kinase 3 (MAPK3, Homo sapiens, UniProt P27361)).
For Dual specificity protein kinase TTK (TTK, Homo sapiens, UniProt P33981): remaining binding read 90%.
It gave 100% for remaining binding (Cyclin-dependent kinase 4, with cyclin D1 (CDK4, Homo sapiens, UniProt P11802)).
For Mitogen-activated protein kinase kinase kinase 11 (MAP3K11, Homo sapiens, UniProt Q16584): remaining binding read 100%.
Death-associated protein kinase 2 (DAPK2, Homo sapiens, UniProt Q9UIK4) — remaining binding: 96%.
For Receptor-type tyrosine-protein kinase FLT3 (FLT3, Homo sapiens, UniProt P36888, N841I): remaining binding read 100%.
Ribosomal protein S6 kinase alpha-3, N-terminal kinase domain (RPS6KA3, Homo sapiens, UniProt P51812) — remaining binding: 99%.
It gave 100% for remaining binding (Phosphatidylinositol 4,5-bisphosphate 3-kinase catalytic subunit alpha isoform (PIK3CA, Homo sapiens, UniProt P42336, E545A)).
The remaining binding was 100% (Proto-oncogene tyrosine-protein kinase Src (SRC, Homo sapiens, UniProt P12931)).
Serine/threonine-protein kinase tousled-like 1 (TLK1, Homo sapiens, UniProt Q9UKI8) — remaining binding: 75%.

Block 2
Target: Calcium/calmodulin-dependent protein kinase type II subunit alpha (CAMK2A, Homo sapiens, UniProt Q9UQM7)
UniProt Q9UQM7, sequence (whole entry, looked up): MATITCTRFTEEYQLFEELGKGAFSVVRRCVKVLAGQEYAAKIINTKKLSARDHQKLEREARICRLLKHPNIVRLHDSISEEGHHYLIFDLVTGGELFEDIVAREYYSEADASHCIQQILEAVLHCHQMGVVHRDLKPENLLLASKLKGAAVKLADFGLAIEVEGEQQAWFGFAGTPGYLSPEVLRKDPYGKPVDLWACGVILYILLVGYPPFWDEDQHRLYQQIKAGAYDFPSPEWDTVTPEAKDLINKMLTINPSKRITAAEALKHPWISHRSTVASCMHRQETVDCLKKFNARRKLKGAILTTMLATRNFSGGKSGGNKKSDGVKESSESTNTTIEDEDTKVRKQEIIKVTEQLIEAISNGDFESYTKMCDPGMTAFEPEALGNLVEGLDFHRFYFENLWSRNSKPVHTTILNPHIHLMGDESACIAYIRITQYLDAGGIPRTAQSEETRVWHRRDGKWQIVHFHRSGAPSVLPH
Effect on: enzyme activity
Action: inhibitor
Concentration: 10 µM
With `OC[C@H]1O[C@@](CO)(O[C@H]2O[C@H](CO[C@@H]3O[C@H](CO)[C@@H](O)[C@H](O)[C@H]3O)[C@@H](O)[C@H](O)[C@H]2O)[C@@H](O)[C@@H]1O` the inhibition was -4%.
`O=C(COc1ccc(Cl)cc1)N1CCN(Cc2ccc3c(c2)OCO3)CC1` gave an inhibition of 6%.
`O=C1OC(OC(=O)c2cccnc2Nc2cccc(C(F)(F)F)c2)c2ccccc21` (stereo not shown) gave an inhibition of -3%.
The inhibition of `CC(C)(CCCCCC(O)CCCCCC(C)(C)C(=O)O)C(=O)O` is reported as 9%.
The inhibition of `C[C@H]1CC[C@@]2(OC1)O[C@H]1C[C@H]3[C@@H]4CC[C@@H]5C[C@@H](O[C@@H]6O[C@H](CO)[C@H](O)[C@H](O)[C@H]6O[C@@H]6O[C@H](CO)[C@@H](O)[C@H](O)[C@H]6O)CC[C@]5(C)[C@H]4CC[C@]3(C)[C@H]1[C@@H]2C` is reported as -2%.
The inhibition of `CCOC(=O)NCCCC(=O)NCCc1ccccc1` is reported as -21%.
`CCOC(=O)C1=C(C)NC(C)=C(C(=O)OC)C1c1cccc([N+](=O)[O-])c1` (stereo not shown) gave an inhibition of -16%.
`CCCCC[C@H](O)CC(=O)CCc1ccc(O)c(OC)c1` gave an inhibition of 10%.
The inhibition of `C[C@H]1O[C@]2(CS1)CN1CCC2CC1` is reported as 17%.
`O=C(/C=C/c1ccc(O)cc1)c1ccc(O)cc1O` gave an inhibition of 13%.
`CCCCCCCCCCCCC(=O)O` gave an inhibition of 34%.
`CC(=O)Oc1cc(C(F)(F)F)ccc1C(=O)O` has an inhibition of -6%.
`C/C=C(\C)C(=O)OC1c2c(ccc3ccc(=O)oc23)OC(C)(C)C1OC(=O)/C(C)=C/C` (stereo not shown) has an inhibition of 3%.
`Clc1ccc(CCC(Cn2ccnc2)Sc2c(Cl)cccc2Cl)cc1` (stereo not shown) gave an inhibition of -7%.
`COC(=O)[C@H](Cc1ccccc1)NC(=O)[C@H](CC(=O)O)NCCC(C)(C)C` gave an inhibition of 8%.

Block 3
Compound: CCN1/C(=C/C(C)=O)Sc2ccc(OC)cc21
Effect on: enzyme activity
Action: inhibitor
Concentration: 0.5 µM
Reference: control
It gave 89.2% for remaining activity (Megakaryocyte-associated tyrosine-protein kinase (MATK, Homo sapiens, UniProt P42679)).
It gave 94.4% for remaining activity (Proto-oncogene tyrosine-protein kinase Src (SRC, Homo sapiens, UniProt P12931)).
It gave 104% for remaining activity (Serine/threonine-protein kinase Nek11 (NEK11, Homo sapiens, UniProt Q8NG66)).
For Insulin receptor (INSR, Homo sapiens, UniProt P06213): remaining activity read 101%.
It gave 95% for remaining activity (Homeodomain-interacting protein kinase 1 (HIPK1, Homo sapiens, UniProt Q86Z02)).
For Cyclin-dependent kinase 3, with cyclin E (CDK3, Homo sapiens, UniProt Q00526): remaining activity read 91.5%.
The remaining activity was 72.8% (PAS domain-containing serine/threonine-protein kinase (PASK, Homo sapiens, UniProt Q96RG2)).
For Tyrosine-protein kinase Fyn (FYN, Homo sapiens, UniProt P06241): remaining activity read 99.1%.
For Vascular endothelial growth factor receptor 3 (FLT4, Homo sapiens, UniProt P35916): remaining activity read 99.7%.
It gave 87.9% for remaining activity (Tyrosine-protein kinase Fer (FER, Homo sapiens, UniProt P16591)).
RAC-alpha serine/threonine-protein kinase (AKT1, Homo sapiens, UniProt P31749) — remaining activity: 90.1%.
The remaining activity was 96.6% (cAMP-dependent protein kinase catalytic subunit PRKX (PRKX, Homo sapiens, UniProt P51817)).
For Serine/threonine-protein kinase TAO3 (TAOK3, Homo sapiens, UniProt Q9H2K8): remaining activity read 95.6%.
For Serine/threonine-protein kinase NLK (NLK, Homo sapiens, UniProt Q9UBE8): remaining activity read 103%.
Serine/threonine-protein kinase N1 (PKN1, Homo sapiens, UniProt Q16512) — remaining activity: 100%.
Serine/threonine-protein kinase 25 (STK25, Homo sapiens, UniProt O00506) — remaining activity: 98%.
For Tyrosine-protein kinase Fgr (FGR, Homo sapiens, UniProt P09769): remaining activity read 91.8%.
The remaining activity was 85% (Serine/threonine-protein kinase MRCK alpha (CDC42BPA, Homo sapiens, UniProt Q5VT25)).
The remaining activity was 105% (ALK tyrosine kinase receptor (ALK, Homo sapiens, UniProt Q9UM73)).
MAP/microtubule affinity-regulating kinase 3 (MARK3, Homo sapiens, UniProt P27448) — remaining activity: 100%.
The remaining activity was 108% (LIM domain kinase 1 (LIMK1, Homo sapiens, UniProt P53667)).
Tyrosine-protein kinase ITK/TSK (ITK, Homo sapiens, UniProt Q08881) — remaining activity: 102%.

Block 4
Cell line: A-375
Concentration: 100 µM
Time: 18 h
With `CC(=O)OCC(=O)[C@@]12N=C(C)O[C@@H]1C[C@H]1[C@@H]3CCC4=CC(=O)C=C[C@]4(C)[C@H]3[C@@H](O)C[C@@]12C` the viability was 95.4%.
With `CC(=O)O[C@@]12CO[C@@H]1C[C@H](O)[C@@]1(C)C(=O)[C@H](O)C3=C(C)[C@@H](OC(=O)[C@H](O)[C@@H](NC(=O)OC(C)(C)C)c4ccccc4)C[C@@](O)([C@@H](OC(=O)c4ccccc4)[C@H]21)C3(C)C` the viability was 55.4%.
For `COc1cc(C(=O)NS(=O)(=O)c2ccccc2C)ccc1Cc1cn(C)c2ccc(NC(=O)OC3CCCC3)cc12`, the viability was 45.8%.
`O[C@@H](c1cc(C(F)(F)F)nc2c(C(F)(F)F)cccc12)[C@H]1CCCCN1` has a viability of 112%.
The viability of `CCOc1ccc(Cc2nccc3cc(OCC)c(OCC)cc23)cc1OCC` is reported as 61.6%.
The viability of `C[C@@H](NCCc1ccc(O)cc1)[C@@H](O)c1ccc(O)cc1` (racemic) is reported as 95.2%.
With `CC(C)C(=O)c1c(C(C)C)nn2ccccc12` the viability was 78.2%.
The viability of `CC(=O)OCC(=O)[C@H]1CC[C@H]2[C@@H]3CCC4=CC(=O)CC[C@]4(C)[C@H]3CC[C@]12C` is reported as 80.5%.
The viability of `COc1ccc([C@@H]2CC(=O)c3c(O)cc(O[C@@H]4O[C@H](CO[C@@H]5O[C@@H](C)[C@H](O)[C@@H](O)[C@H]5O)[C@@H](O)[C@H](O)[C@H]4O)cc3O2)cc1O` is reported as 90%.
`CCN[C@@H]1C[C@H](N)[C@@H](O[C@H]2OC(CN)=CC[C@H]2N)[C@H](O)[C@H]1O[C@H]1OC[C@](C)(O)[C@H](NC)[C@H]1O` gave a viability of 91.7%.
With `NC[C@H]1O[C@H](O[C@H]2[C@H](O)[C@@H](O[C@H]3O[C@H](CO)[C@@H](O)[C@H](N)[C@H]3O)[C@H](N)C[C@@H]2N)[C@H](O)[C@@H](O)[C@@H]1O` the viability was 99.1%.
For `NNC(=O)c1ccncc1`, the viability was 81.1%.

A few entries again (block 2):
The inhibition of `CC(C)(CCCCCC(O)CCCCCC(C)(C)C(=O)O)C(=O)O` is reported as 9%.
The inhibition of `C[C@H]1CC[C@@]2(OC1)O[C@H]1C[C@H]3[C@@H]4CC[C@@H]5C[C@@H](O[C@@H]6O[C@H](CO)[C@H](O)[C@H](O)[C@H]6O[C@@H]6O[C@H](CO)[C@@H](O)[C@H](O)[C@H]6O)CC[C@]5(C)[C@H]4CC[C@]3(C)[C@H]1[C@@H]2C` is reported as -2%.
The inhibition of `CCOC(=O)NCCCC(=O)NCCc1ccccc1` is reported as -21%.
`CCOC(=O)C1=C(C)NC(C)=C(C(=O)OC)C1c1cccc([N+](=O)[O-])c1` (stereo not shown) gave an inhibition of -16%.
`CCCCC[C@H](O)CC(=O)CCc1ccc(O)c(OC)c1` gave an inhibition of 10%.
The inhibition of `C[C@H]1O[C@]2(CS1)CN1CCC2CC1` is reported as 17%.
